Measurements gathered from unrelated publications.
Every numbered part comes from another study and shows a few of its results, in no order. Positions count from the first letter of the parent shown.

Block 1 — method: DHFR PCA, deep sequencing; medium: yeast; added: (+)-ABA 2500 µM; relative to: wild-type fitted maximum; reading: higher = stronger binding; endpoint: relative binding score
Target: ABI1, truncated, D143A, DHFR fusion (Arabidopsis thaliana)
Setting: methotrexate growth selection, single substitutions
Starting sequence: PYL1, truncated, DHFR fusion (Arabidopsis thaliana); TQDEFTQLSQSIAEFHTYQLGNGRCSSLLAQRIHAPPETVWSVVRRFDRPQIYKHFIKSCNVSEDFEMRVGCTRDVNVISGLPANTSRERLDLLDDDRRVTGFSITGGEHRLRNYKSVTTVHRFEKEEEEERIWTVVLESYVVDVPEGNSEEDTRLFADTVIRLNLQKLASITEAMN
L28M: 102%
R98A: 101%
V136W: 103%
G107K: 93.3%
K116N: 100%
F5N: 88.2%
N177D: 105%
E139M: 92.5%
T17M: 94.4%
P36C: 103%
T119P: -2.52%
S26D: 84.3%
L169A: 45.4%
L28C: 101%
R74P: -4.83%
L164N: 98.2%
E4K: 82.1%
D153F: 18.9%

Block 2 — method: universal PBM; molecule type: double-stranded DNA, one strand shown; medium: in vitro; tested at: 600 nM; reading: higher = stronger binding; endpoint: E-score
Target: Sal-like protein 4, full length isoform A (SALL4, Homo sapiens, UniProt Q9UJQ4, residues 1-1053)
UniProt Q9UJQ4, sequence (whole entry, looked up): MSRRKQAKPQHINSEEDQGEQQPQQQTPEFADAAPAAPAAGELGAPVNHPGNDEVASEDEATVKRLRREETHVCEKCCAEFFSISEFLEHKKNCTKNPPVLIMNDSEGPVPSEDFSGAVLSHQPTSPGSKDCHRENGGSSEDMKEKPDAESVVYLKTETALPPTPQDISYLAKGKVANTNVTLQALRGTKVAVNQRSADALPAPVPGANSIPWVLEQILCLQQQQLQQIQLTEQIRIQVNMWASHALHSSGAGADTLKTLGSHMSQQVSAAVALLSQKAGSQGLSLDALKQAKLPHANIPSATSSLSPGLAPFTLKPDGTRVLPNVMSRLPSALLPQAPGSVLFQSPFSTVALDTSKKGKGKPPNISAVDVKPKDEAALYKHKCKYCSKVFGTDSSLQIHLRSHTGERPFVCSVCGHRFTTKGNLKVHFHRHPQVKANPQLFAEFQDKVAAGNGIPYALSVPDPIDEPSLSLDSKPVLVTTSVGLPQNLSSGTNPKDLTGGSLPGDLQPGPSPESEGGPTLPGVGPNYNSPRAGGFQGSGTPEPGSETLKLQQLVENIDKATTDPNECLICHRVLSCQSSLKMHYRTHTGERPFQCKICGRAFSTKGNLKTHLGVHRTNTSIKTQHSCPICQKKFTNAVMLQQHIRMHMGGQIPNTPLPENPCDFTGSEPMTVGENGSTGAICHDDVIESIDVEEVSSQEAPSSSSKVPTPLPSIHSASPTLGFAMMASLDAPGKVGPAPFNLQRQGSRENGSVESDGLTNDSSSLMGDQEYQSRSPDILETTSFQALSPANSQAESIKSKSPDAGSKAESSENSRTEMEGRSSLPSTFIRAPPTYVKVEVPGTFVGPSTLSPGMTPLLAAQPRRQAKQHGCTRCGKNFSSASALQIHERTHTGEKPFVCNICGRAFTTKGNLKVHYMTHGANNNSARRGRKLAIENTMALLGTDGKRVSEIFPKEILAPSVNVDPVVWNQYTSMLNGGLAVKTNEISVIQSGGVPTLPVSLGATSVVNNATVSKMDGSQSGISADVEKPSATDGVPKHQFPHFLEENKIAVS
Setting: 8-mer, flanks averaged, mean of replicates
CCATCCGA: -0.0529
ATGAGGTA: 0.173
GGTCCACC: -0.337
AATGCCCG: -0.231
CCCGCACG: -0.31
CGGAAGAG: -0.202
CTGCTAGC: -0.239
GTAAGAAC: 0.0852
ACCGGCTC: -0.337
ACAGCGAA: 0.0051
ATCTAACG: 0.101
CACCCACC: -0.237
GGATTTTA: 0.204
CGGAGGTC: -0.206

Block 3 — method: aptamer microarray, sandwich; molecule type: DNA with 2'F-ANA; medium: in vitro; tested at: 200 nM; added: Cy3 exosite-II aptamer, 400 nM; reading: higher = stronger binding; endpoint: mean fluorescence intensity; oligonucleotide: GGTTGGTGTGGTTGG
Target: Prothrombin, mature alpha-thrombin (F2, Homo sapiens, UniProt P00734)
Setting: whole 15-mer aptamer, many near background
2'F-ANA at 1 2 3 5 6 7 8 9 10 13 14 15: 89.9 a.u.
2'F-ANA at 1 4 5 6 7 8 9 11 12 13 15: 63.9 a.u.
2'F-ANA at 5 7 8 11 12 13 14: 47.2 a.u.
2'F-ANA at 2 5 9 11 12: 129 a.u.
2'F-ANA at 2 4 13 14: 106 a.u.
2'F-ANA at 1 2 3 4 6 9 10 11 13 14 15: 52.9 a.u.
2'F-ANA at 1 3 4 6 7 10 12 13 14 15: 48.3 a.u.
2'F-ANA at 1 2 4 5 6 8 11 12 13 14 15: 55.6 a.u.
2'F-ANA at 1 3 5 7 8 9 10 11 12 13: 53.9 a.u.
2'F-ANA at 3 5 10 11 12: 68.2 a.u.
2'F-ANA at 1 2 3 5 6 7 12 13 14: 49.9 a.u.
2'F-ANA at 1 2 3 5 6 8 9 10 11 14: 47.9 a.u.
2'F-ANA at 1 2 3 6 7 9 10 11 13 14 15: 82.5 a.u.
2'F-ANA at 2 5 7 11 15: 76.8 a.u.

Block 4 — method: protein binding microarray; molecule type: double-stranded DNA, one strand shown; medium: in vitro; tested at: not given; relative to: not given; reading: higher = stronger binding; endpoint: E-score
Target: Histone acetyltransferase KAT6A, winged helix 2, GST fusion (KAT6A, Homo sapiens, UniProt Q92794, residues 85-181)
Setting: 8-mer, flanks averaged, mean of 2 arrays, mostly near background
Residues (chain): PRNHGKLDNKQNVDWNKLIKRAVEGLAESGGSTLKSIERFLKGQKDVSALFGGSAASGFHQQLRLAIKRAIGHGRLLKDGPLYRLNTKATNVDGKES
GCTTACAC: 0.0536
ACATCATG: -0.117
GGGCTTGA: -0.0144
GGCATCAA: 0.0584
GGACCTAA: 0.00583
CCGCCCTC: 0.195
CTGATGCA: 0.101
ACGAGCGT: -0.0893
CTCCAAAG: 0.109
GAGGTCGA: 0.152
ACGTCAAA: -0.115
AGGGTACA: -0.18

Block 5 — method: protein-binding microarray; molecule type: double-stranded DNA, one strand shown; medium: in vitro; tested at: 250 nM; setting: 60-bp whole probe; added: salmon DNA 0.4 mg/ml; relative to: random background probes; reading: higher = stronger binding; endpoint: log fluorescence; all sequences stand within: GCCTAGCAC … GTCTTGATTCGCTTGACGCTGCTG
Target: Interferon regulatory factor 7, full length, phosphomimetic (IRF7, Homo sapiens, UniProt Q92985, residues 1-503, S101K/S471D/S472D/S475D/S476D/S477D/S483D/S484D/S487D)
Construct (chain): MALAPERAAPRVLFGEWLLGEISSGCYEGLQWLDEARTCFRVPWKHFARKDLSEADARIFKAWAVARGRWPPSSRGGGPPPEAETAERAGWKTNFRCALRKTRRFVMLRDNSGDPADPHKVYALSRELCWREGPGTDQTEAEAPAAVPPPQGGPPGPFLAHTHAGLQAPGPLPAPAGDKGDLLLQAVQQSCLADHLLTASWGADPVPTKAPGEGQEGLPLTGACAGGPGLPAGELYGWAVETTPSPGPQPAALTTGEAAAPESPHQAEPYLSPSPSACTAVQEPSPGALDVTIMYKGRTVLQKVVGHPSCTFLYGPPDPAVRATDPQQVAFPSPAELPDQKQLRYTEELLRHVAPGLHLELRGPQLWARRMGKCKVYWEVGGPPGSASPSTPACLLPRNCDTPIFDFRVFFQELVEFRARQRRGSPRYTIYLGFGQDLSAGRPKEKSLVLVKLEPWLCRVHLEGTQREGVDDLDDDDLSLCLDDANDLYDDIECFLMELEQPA
TGTGTCCTGGCTTTGACTCTGTGCTAG: -0.244 z-score
TCATGTTTCTACTGTCTGACTGTGCTA: 1.07 z-score
GACGAACTGAGCCTCGAGACGTGCTAG: -0.08 z-score
GTCGGTCTCGGTCTCGGGACGTGCTAG: 1.51 z-score
TTAGGTATCGGTTTGGGTTAGTGCTAG: 5.55 z-score
TTAAGTTCCCTTTTCCTTTAGTGCTAG: 3.94 z-score
TTAGATTTCGGGGCTGGATTAGTGCTA: -0.0671 z-score
GACGGACTAGGACTGGGGACGTGCTAG: -0.217 z-score
TGTTTTTGCTTTCTTTATGTGTGCTAG: 3.26 z-score
GACCGACTGGACTTTCGGGACGTGCTA: -0.00451 z-score
TCATTTTCGTTTTTATTATTGTGCTAG: 9.52 z-score
GGCTGTTTGGTCCTGATCCTGTGCTAG: -0.724 z-score

Block 6 — method: RNAcompete; molecule type: RNA; medium: in vitro; tested at: 20 nM; setting: 7-mer, probes averaged, single round; relative to: mean of 7-mers; reading: higher = stronger binding; endpoint: 7-mer Z-score
Target: PABPC1L2, full length, GST fusion (mouse, UniProt A0ABA7IW68)
Target sequence (chain): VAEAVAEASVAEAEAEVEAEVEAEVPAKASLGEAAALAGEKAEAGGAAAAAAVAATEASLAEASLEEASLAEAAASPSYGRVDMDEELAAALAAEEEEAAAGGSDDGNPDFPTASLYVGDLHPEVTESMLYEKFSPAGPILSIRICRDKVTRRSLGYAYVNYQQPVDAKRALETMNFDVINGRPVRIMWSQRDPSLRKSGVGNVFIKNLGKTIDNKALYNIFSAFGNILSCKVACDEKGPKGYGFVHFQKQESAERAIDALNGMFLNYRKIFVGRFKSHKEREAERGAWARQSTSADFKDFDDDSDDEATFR
GUCAAGG: -0.117
UUCGUUU: -0.634
GUCGGGG: -0.0518
GUCGAUU: -0.36
GCAAUGA: 0.133
GCGUCGA: -0.219
UGCCCUG: -0.309
CCUGAAU: -0.371
CUGCAAA: 0.35
GUAAUGC: -0.122
UUUAUCU: -0.269
AGACGGA: -0.0228
CGAGCGG: 0.0189
CAUAUGU: -0.209

Block 7 — method: RNA Bind-n-Seq; molecule type: RNA; medium: in vitro; tested at: 200 nM; setting: whole 134-nt RNA, ends assumed; added: 150 mM LiCl; relative to: input library; reading: higher = stronger binding; endpoint: log2 enrichment; each molecule: 7-deaza-guanosine replaces G
Target: Ras GTPase-activating protein-binding protein 1, full length (G3BP1, Homo sapiens, UniProt Q13283)
UniProt Q13283, sequence (whole entry, looked up): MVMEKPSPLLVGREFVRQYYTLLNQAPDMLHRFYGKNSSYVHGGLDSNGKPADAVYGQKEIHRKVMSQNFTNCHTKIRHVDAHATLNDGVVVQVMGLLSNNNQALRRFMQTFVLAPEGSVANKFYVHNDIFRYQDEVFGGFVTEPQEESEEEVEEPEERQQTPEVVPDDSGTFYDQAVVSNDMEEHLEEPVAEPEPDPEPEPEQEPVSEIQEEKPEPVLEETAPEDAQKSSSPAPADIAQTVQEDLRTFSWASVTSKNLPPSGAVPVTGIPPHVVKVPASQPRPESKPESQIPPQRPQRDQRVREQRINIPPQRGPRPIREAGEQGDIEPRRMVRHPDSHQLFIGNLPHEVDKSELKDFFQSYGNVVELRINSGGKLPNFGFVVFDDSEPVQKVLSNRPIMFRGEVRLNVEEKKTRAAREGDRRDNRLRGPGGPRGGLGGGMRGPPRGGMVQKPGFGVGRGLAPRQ
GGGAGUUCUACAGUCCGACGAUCUUCGACGGCGCCGGGCGAGUGGCUGUUGAGCGGCGCCGCGGGAGUUCCGCAGGUUUCCCGUGUUCGCAGCGGAGCCGGAGGCCAGCUGAAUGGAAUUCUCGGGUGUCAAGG: -1.6
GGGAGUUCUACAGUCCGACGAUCUCAUCCUUUUUAAAUUUUUUUUUUUUUUUUGAGACGGUCUCACUCUCACCCAGGCUGGAUUGCAGUGGUGUGAUCUCGACCAACUGCAACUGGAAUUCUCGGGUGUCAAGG: 0.915
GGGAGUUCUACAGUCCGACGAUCCAAGUCCUGUGCUACACAUCGUAUGUACCGAAUCGGGGUGGGGAGGGGUUUGGGGAAAGUAUUAUGUUACGCCGUUCGGAUCUGCACUUCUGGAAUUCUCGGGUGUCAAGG: -0.397
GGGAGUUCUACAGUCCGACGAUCUCAAGUCCUGUGCUACACAUCGUAUGUACCGAAUCGGAAAAAGGAAAAAGGAGGAAAGUAUUAUGUUACGCCGUUCGGAUCUGCACUUCCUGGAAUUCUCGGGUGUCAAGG: -0.251
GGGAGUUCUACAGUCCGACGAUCAGUCCUGUGCUACACAUCGUAUGUACCGAAUCGGGUUUUUUUGGGAAAGGGAAAGGGAAAGUAUUAUGUUACGCCGUUCGGAUCUGCACUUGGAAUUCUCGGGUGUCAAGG: -1.27
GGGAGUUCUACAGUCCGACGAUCUGGGAGGUGGAUUUUGUUUAUUUUUUUAGCUCAUUUCCAGGGGUGGGAAUUUUUUUUUAAUAUGUGUCAUGAAUAACGUUGUUUUUGAAAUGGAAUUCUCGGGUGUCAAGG: -0.0575
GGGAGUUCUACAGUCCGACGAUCGUCCUGUGCUACACAUCGUAUGUACCGAAUCGGGCCCCCGGGCCCCCGGGCCCCCGGGGAAAGUAUUAUGUUACGCCGUUCGGAUCUGCAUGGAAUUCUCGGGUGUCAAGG: -1.68
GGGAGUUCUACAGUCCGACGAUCUGGGAGGUGGAUUUUGUUUAUUUUUUUAGCUCAUGUCCAGGGGUGGGAAUUUUUUUUUAAUAUGUGUCAUGAAUAAAGUUGUUUUUGAAAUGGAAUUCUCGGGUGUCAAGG: -0.195
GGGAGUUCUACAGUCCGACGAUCUGGCCCUGGUGGCAUGCGGGGAGGAAGAGGUGGCCUCAUGGAUCGUGGUGGUCCCGGUGGAAUGCUCAGAGGUGGCCGUGGUGGAGACAGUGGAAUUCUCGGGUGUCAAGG: -0.0511
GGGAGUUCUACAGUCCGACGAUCAGUCCUGUGCUACACAUCGUAUGUACCGAAUCGGGGAAAAAGGGAAAAAGGAAAAAGGAAAGUAUUAUGUUACGCCGUUCGGAUCUGCACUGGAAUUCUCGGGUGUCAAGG: -0.314
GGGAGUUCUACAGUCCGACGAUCUGGCCCUGGUGGCAUGCGGGGAGGAAGAGGUGGCCUCAUGGAUCGUGGUGGUCCCGGUGGAAUGUUCCGAGGUGGCCGUGGUGGAGACAGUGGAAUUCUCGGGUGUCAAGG: 0.0215

For quick reference, copied from above (block 5):
TGTGTCCTGGCTTTGACTCTGTGCTAG: -0.244 z-score
TTAGGTATCGGTTTGGGTTAGTGCTAG: 5.55 z-score
GACGAACTGAGCCTCGAGACGTGCTAG: -0.08 z-score
TTAAGTTCCCTTTTCCTTTAGTGCTAG: 3.94 z-score
GGCTGTTTGGTCCTGATCCTGTGCTAG: -0.724 z-score
TCATTTTCGTTTTTATTATTGTGCTAG: 9.52 z-score
GTCGGTCTCGGTCTCGGGACGTGCTAG: 1.51 z-score
TGTTTTTGCTTTCTTTATGTGTGCTAG: 3.26 z-score
GACCGACTGGACTTTCGGGACGTGCTA: -0.00451 z-score
TCATGTTTCTACTGTCTGACTGTGCTA: 1.07 z-score
